# Experimental data from different studies.
# Lines come from different studies, so protocols differ. Numbers after ± are the reported error.
Substance,organism,test,test system,conditions,quantity,result
Cc1ccc(S(=O)(=O)N2C(=O)CSC2c2cccc(F)c2)cc1 (stereo not drawn),Salmonella enterica,"microbial growth, broth dilution",TYPHIMURIUM,,MIC,64 µg/mL
COc1ccc(NCc2ccc(Oc3ccccn3)cc2)cc1,Mycobacterium tuberculosis,,"H37Rv, GAST-Fe medium","2 weeks, pH 6.6",MIC,41 µM
NC(=O)c1ncn([C@@H]2O[C@H](CO)[C@@H](O)[C@H]2O)n1,tobacco mosaic virus,half-leaf method,tobacco,"500 µg/mL, 24 h before inoculation",protective activity,48.6 ± 2.5%
Cc1cccc(-n2cc(Cn3c(C(=O)O)nc4ccccc4c3=O)nn2)c1,Candida tropicalis,"microbial growth, broth dilution",ATCC750,24 h,IC50,223 µg/mL
Brc1ccc(NCc2ccc(Oc3ccccn3)cc2)cc1,Mycobacterium tuberculosis,,"H37Rv, 7H9/ADC/Tween medium",2 weeks,MIC,70 µM
N=C(N)c1ccc(OCCCCCOc2ccc(C(=N)N)cc2)cc1,Leishmania tarentolae,"viability, resazurin","promastigotes, YEM/PBS","48 h, 26 °C, together with: 10% FCS",IC50,0.36 ± 0.34 µM
CNC1=C([N+](=O)[O-])C2(C(=O)Nc3ccc(Br)cc32)C2=C(CC(C)(C)CC2=O)O1 (stereo not drawn),Salmonella enterica,microbial growth,TYPHIMURIUM,"250 µg/mL, 24 h",inhibition,61.4%
Cc1ccccc1NCc1ccc(Oc2ccccn2)cc1,Mycobacterium tuberculosis,,"H37Rv, 7H9/ADC/Tween medium",1 week,MIC,40 µM
CC[C@H]1OC(=O)[C@H](C)[C@@H](O[C@H]2C[C@@](C)(OC)[C@@H](O)[C@H](C)O2)[C@H](C)[C@@H](O[C@@H]2O[C@H](C)C[C@H](N(C)C)[C@H]2O)[C@](C)(O)C[C@@H](C)CN(C)[C@H](C)[C@@H](O)[C@]1(C)O,Enterococcus,,community-acquired pneumonia patients,Fine score below 70,sensitive strains,0%
CCC(=O)O[C@H]1[C@H](C)O[C@@H](O[C@H]2[C@H](N(C)C)[C@@H](O)[C@H](O[C@H]3[C@@H](CC=O)C[C@@H](C)[C@@H](O)/C=C/C=C/C[C@@H](C)OC(=O)C[C@@H](O)[C@@H]3OC)O[C@@H]2C)C[C@@]1(C)O,Bacillus subtilis,,"ATCC 6633, DMSO-methanol","50 µL of 2.0 mM, 24 h, 37 °C, 9 mm well",inhibition zone diameter,29 mm
CNC1=C([N+](=O)[O-])C2(C(=O)Nc3ccc(Cl)cc32)C2=C(CC(C)(C)CC2=O)O1 (stereo not drawn),Salmonella enterica,microbial growth,TYPHIMURIUM,"250 µg/mL, 24 h",inhibition,58.5%
Fc1ccc(NCc2ccc(Oc3ccccn3)cc2)cc1,Mycobacterium tuberculosis,,"H37Rv, 7H9/ADC/Tween medium",1 weeks,MIC,> 50 µM
N=c1c2ncn3c2ncn1[C@@H]1O[C@H](COP(=O)(O)OP(=O)(O)OC[C@H]2O[C@@H]3[C@H](O)[C@@H]2O)[C@@H](O)[C@H]1O,Lytechinus pictus,"Ca2+ release, agonist, Fluo-3 fluorimetry",egg homogenate,"together with: carvedilol 30 µM, 2 min preincubation",EC50,0.41 µM
COc1ccc(C(=O)NN=Cc2ccc(O)c3ncccc23)cc1,Enterococcus faecium,bacterial growth,ATCC 19434,cation-supplemented medium,EC50,> 100 µM
Cc1ccc(S(=O)(=O)N2C(=O)CSC2c2ccccc2)cc1 (stereo not drawn),Salmonella enterica,"microbial growth, broth dilution",TYPHIMURIUM,,MIC,> 256 µg/mL
Cc1noc(/C=C/c2ccccn2)c1[N+](=O)[O-],Schistosoma mansoni,parasite motility,,"48 h, adult",EC50,~6 µM
O=C(O)CSc1nnc(C23CC4CC(CC(C4)C2)C3)n1-c1ccccc1,Bacillus subtilis,,IFO 3007,"200 µg/disc, 24 h, 37 °C",inhibition zone diameter,18 mm
O=C(O)c1nc2ccccc2c(=O)n1Cc1cn(-c2ccc([N+](=O)[O-])cc2)nn1,Candida tropicalis,"microbial growth, broth dilution",ATCC750,24 h,IC50,337 µg/mL
Clc1ccc(NCc2ccc(Oc3ccccn3)cc2)cc1,Mycobacterium tuberculosis,,"H37Rv, GAST-Fe medium","1 weeks, pH 6.6",MIC,40 µM
COc1cccc(-n2cc(Cn3c(C(=O)O)nc4ccccc4c3=O)nn2)c1,Candida tropicalis,"microbial growth, broth dilution",ATCC750,24 h,IC50,444 µg/mL
CC1(C)S[C@@H]2[C@H](NC(=O)[C@H](N)c3ccc(O)cc3)C(=O)N2[C@H]1C(=O)O,coagulase-negative Staphylococcus,,community-acquired pneumonia patients,Fine score below 70,sensitive strains,33.3%
Cc1ccc(C(=O)N(C(=O)c2ccc(C)cc2)C(=S)N2N=C(c3ccc(Cl)cc3)CC2c2ccc(Cl)cc2)cc1 (stereo not drawn),Artemia,cytotoxicity,,24 h,IC50,114 ± 11.6 µM
CCCCOc1ccc(-c2nc(N)[nH]c2C(F)(F)F)cc1,Mycolicibacterium smegmatis,biofilm,,,EC50,95.2 ± 5.4 µM
CCn1cc(C(=O)Nc2ncccc2O)c(=O)c2cc(F)c(N3CCN(C(=O)c4ccco4)CC3)cc21,Mycolicibacterium smegmatis,microbial growth,,50 µM,inhibition,~10%
Cc1ccccc1-n1cc(Cn2c(C(=O)O)nc3ccccc3c2=O)nn1,Candida tropicalis,"microbial growth, broth dilution",ATCC750,24 h,IC50,233 µg/mL
Nc1ncn(CC(O)C(F)(F)F)c(=O)n1 (stereo not drawn),human mastadenovirus C,viral replication,,,EC50,40 to 270 µM
Nisin A,Streptococcus agalactiae,deferred antagonism overlay,"ATCC 13813, GM17 agar","concentration not given, produced by spotted strain",inhibition zone diameter,14.1 ± 0.6 mm
Cc1ccc(C(=O)Nc2ccc(S(=O)(=O)O)c3cc(S(=O)(=O)O)cc(S(=O)(=O)O)c23)cc1NC(=O)c1cccc(NC(=O)Nc2cccc(C(=O)Nc3cc(C(=O)Nc4ccc(S(=O)(=O)O)c5cc(S(=O)(=O)O)cc(S(=O)(=O)O)c45)ccc3C)c2)c1,Dengue virus 2,viral replication,BHK-21,24 h,EC50,< 10 µM
Cc1ccc(S(=O)(=O)N2C(=O)CSC2c2ccc(Br)cc2)cc1 (stereo not drawn),Salmonella enterica,"microbial growth, broth dilution",TYPHIMURIUM,,MIC,16 µg/mL
Oc1c(Br)cc(Br)c2nc3ccccc3nc12,Enterococcus,Calgary Biofilm Device,VRE 700221,biofilm,MBC,18.8 µM
CN(C)CCCn1c(=O)c2ccc3c(=O)n(CCCN(C)C)c(=O)c4c5[nH]c6ccccc6[nH]c5c(c1=O)c2c34,HIV-1,,"TZM-bl, BaL",activity with cytotoxicity below 80%,therapeutic window,15.6 to 250 nM
CCCCCOc1ccc(-c2nc(N)[nH]c2C(F)(F)F)cc1,Mycolicibacterium smegmatis,biofilm,,,EC50,74.2 ± 2.5 µM
CCOC(=O)c1nc2ccccc2c(=O)n1Cc1cn(-c2cccc(F)c2)nn1,Candida tropicalis,"microbial growth, broth dilution",ATCC750,24 h,IC50,182 µg/mL
O=c1c(O)c(-c2cc(O)c(O)c(O)c2)oc2cc(O)cc(O)c12,human alphaherpesvirus 1,viral replication,"HEp-2, F",24 h,IC50,6.3 ± 0.2 µM
CCOC(=O)N1CCN(Cn2nc(C34CC5CC(CC(C5)C3)C4)n(-c3ccccc3)c2=S)CC1,Bacillus subtilis,,IFO 3007,"200 µg/disc, 24 h, 37 °C",inhibition zone diameter,19 mm
Cc1ccc(-n2cc(Cn3c(C(=O)O)nc4ccccc4c3=O)nn2)cc1,Candida tropicalis,"microbial growth, broth dilution",ATCC750,24 h,IC50,13.5 µg/mL
Nc1nc(=O)c2c([nH]1)NC[C@@H]1CN(c3ccc(C(=O)N[C@@H](CCC(=O)O)C(=O)O)cc3)C(=O)N21,Leishmania,,macrophages,intracellular amastigotes,EC50,~5 µM
CCOC(=O)c1nc2ccccc2c(=O)n1Cc1cn(-c2ccccc2OC)nn1,Candida tropicalis,"microbial growth, broth dilution",ATCC750,24 h,IC50,13.8 µg/mL
COCCSc1nnc(C23CC4CC(CC(C4)C2)C3)n1-c1ccccc1,Bacillus subtilis,,IFO 3007,"200 µg/disc, 24 h, 37 °C",inhibition zone diameter,< 10 mm
Brc1cccc(NCc2ccc(Oc3ccccn3)cc2)c1,Mycobacterium tuberculosis,,"H37Rv, GAST-Fe medium","1 weeks, pH 6.6",MIC,35 µM
CC[C@H]1OC(=O)[C@H](C)[C@@H](O[C@H]2C[C@@](C)(OC)[C@@H](O)[C@H](C)O2)[C@H](C)[C@@H](O[C@@H]2O[C@H](C)C[C@H](N(C)C)[C@H]2O)[C@](C)(O)C[C@@H](C)C(=O)[C@H](C)[C@@H](O)[C@]1(C)O,Enterococcus,,community-acquired pneumonia patients,Fine score 70 or more,sensitive strains,0%
COc1cccc(NCc2ccc(Oc3ccccn3)cc2)c1,Mycobacterium tuberculosis,,"H37Rv, 7H9/ADC/Tween medium",2 weeks,MIC,> 50 µM
C[C@H]1CN(c2n[nH]c3nc(N[C@H]4CC[C@H](NS(=O)(=O)CCC(F)(F)F)CC4)ncc23)CCO1,Leishmania donovani,,"human PBMC, DD8",,EC50,0.13 µM
CCOC(=O)c1nc2ccccc2c(=O)n1Cc1cn(-c2ccc(C)cc2)nn1,Candida tropicalis,"microbial growth, broth dilution",ATCC750,24 h,IC50,12.4 µg/mL
CNC1=C([N+](=O)[O-])C2(C(=O)Nc3ccc(Cl)cc32)c2c(c3ccccc3oc2=O)O1 (stereo not drawn),Salmonella enterica,microbial growth,TYPHIMURIUM,"250 µg/mL, 24 h",inhibition,57.1%
CN(C)CCSc1nnc(C23CC4CC(CC(C4)C2)C3)n1C,Bacillus subtilis,,IFO 3007,"200 µg/disc, 24 h, 37 °C",inhibition zone diameter,13 mm
CNC1=C([N+](=O)[O-])C2(C(=O)Nc3ccccc32)C2=C(O1)C(=O)c1ccccc1C2=O (stereo not drawn),Salmonella enterica,microbial growth,TYPHIMURIUM,"250 µg/mL, 24 h",inhibition,100%
O=C(C1CCCCC1)N1CC(=O)N2CCc3ccccc3C2C1 (racemic),Schistosoma mansoni,current clamp,adult males,"10 µM, 10 min",trans-surface potential,-3.9 ± 0.6 mV

# Excerpt of the above:
Substance,organism,test,test system,conditions,quantity,result
CN(C)CCCn1c(=O)c2ccc3c(=O)n(CCCN(C)C)c(=O)c4c5[nH]c6ccccc6[nH]c5c(c1=O)c2c34,HIV-1,,"TZM-bl, BaL",activity with cytotoxicity below 80%,therapeutic window,15.6 to 250 nM
CCCCCOc1ccc(-c2nc(N)[nH]c2C(F)(F)F)cc1,Mycolicibacterium smegmatis,biofilm,,,EC50,74.2 ± 2.5 µM
CCOC(=O)c1nc2ccccc2c(=O)n1Cc1cn(-c2cccc(F)c2)nn1,Candida tropicalis,"microbial growth, broth dilution",ATCC750,24 h,IC50,182 µg/mL
O=c1c(O)c(-c2cc(O)c(O)c(O)c2)oc2cc(O)cc(O)c12,human alphaherpesvirus 1,viral replication,"HEp-2, F",24 h,IC50,6.3 ± 0.2 µM
CCOC(=O)N1CCN(Cn2nc(C34CC5CC(CC(C5)C3)C4)n(-c3ccccc3)c2=S)CC1,Bacillus subtilis,,IFO 3007,"200 µg/disc, 24 h, 37 °C",inhibition zone diameter,19 mm
Cc1ccc(-n2cc(Cn3c(C(=O)O)nc4ccccc4c3=O)nn2)cc1,Candida tropicalis,"microbial growth, broth dilution",ATCC750,24 h,IC50,13.5 µg/mL
Nc1nc(=O)c2c([nH]1)NC[C@@H]1CN(c3ccc(C(=O)N[C@@H](CCC(=O)O)C(=O)O)cc3)C(=O)N21,Leishmania,,macrophages,intracellular amastigotes,EC50,~5 µM
